# Experimental data collected from several papers.
# “And” joins repeats or separate records; there may be more than shown. ± marks the error that the study gave.
# UCHL1: Ubiquitin carboxyl-terminal hydrolase isozyme L1 (UCHL1, Homo sapiens, UniProt P09936)
# Chain of UniProt P09936 (whole entry, looked up): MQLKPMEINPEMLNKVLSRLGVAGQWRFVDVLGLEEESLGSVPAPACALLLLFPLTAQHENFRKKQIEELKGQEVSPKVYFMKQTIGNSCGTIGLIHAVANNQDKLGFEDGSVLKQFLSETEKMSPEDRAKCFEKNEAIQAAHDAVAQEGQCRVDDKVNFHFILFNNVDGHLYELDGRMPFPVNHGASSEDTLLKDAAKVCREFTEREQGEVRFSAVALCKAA
SMILES,tested on,test,system,conditions,scale,endpoint,value
CC(C)(O)c1coc(S(=O)(=O)NC(=O)Nc2c3c(cc4c2CCC4)CCC3)c1,,,"Sprague-Dawley rat, male","oral, 2 mg/kg, 6 h",,plasma concentration,4.63 ng/mL and 2.92 ng/mL and 9.5 ng/mL
Cc1cccc(Cn2cc(CO)c3cnccc32)c1,,,"rat, plasma","oral, 100 mg/kg/day, 24 h after first dose",,plasma concentration,< 2 ng/mL
COc1cc(F)c([C@@H]2CNC(=O)[C@H]2NC(=O)Nc2ccccc2)c(F)c1,,,"Sprague-Dawley rat, ischaemia-reperfusion, plasma","1 mg/kg, 2 h",,plasma concentration,92 ± 46 nM
Cc1ccc2c(c1)C(=O)[C@]1(O)CCN(c3ccc4nc(C)ccc4c3)C1=N2,,,"rat, plasma","subcutaneous, 90 mg/kg, 1 h",,plasma concentration,4400 ± 300 nM
CC(=O)NCCc1ccc(C(=O)CCl)cc1,UCHL1,"covalent, intact protein LC-MS",,12.5 µM,,labelling,29.5%
N=C(N)c1ccc(OCCCCCOc2ccc(C(=N)N)cc2)cc1,Trypanosoma cruzi,"reporter translation, Renilla luciferase mRNA translation",cell-free extract,40 µM,baseline: DMSO,inhibition,-7.7%
Cc1cc(NNC(=O)NC2CCCCC2)nc(Cl)c1C#N,UCHL1,"covalent, intact protein LC-MS",,12.5 µM,,labelling,13.6%
CC(C)c1nc(N(C)S(C)(=O)=O)nc(-c2ccc(F)cc2)c1/C=C/[C@@H](O)C[C@@H](O)CC(=O)O,,,"Wistar albino rat, both sexes, plasma","oral, 20 mg/kg, 24 h",,plasma concentration,75.3 ng/mL
Cc1ccc(S(=O)(=O)n2cc3c4c2C(=O)C(NCc2ccc(Cl)cc2)=CC4=NCC3)cc1,,,"Sprague-Dawley rat, plasma","intravenous, 5 mg/kg, 4 h",,plasma concentration,78.1 ± 60.8 ng/mL
Cc1cc(C)cc(C(=O)c2c(C(C)C)c(=O)[nH]c(=O)n2Cc2ccnc(N)c2)c1,,HPLC-DAD,"Sprague-Dawley rat, plasma","oral, 100 mg/kg",,plasma concentration,not detected
CCN(Cc1ccc(F)cc1)c1ccc(CO)c(Cl)c1,,,"rat, plasma","oral, 100 mg/kg/day, 24 h after first dose",,plasma concentration,< 2 ng/mL
CCOCc1nc(O)c(-c2nnc(Cc3ccc(Cl)cn3)o2)c(O)c1-c1c(OC)cccc1OC,,,"rat, anaesthetised, cannulated, plasma","intravenous infusion, 10 µg/kg/min, 20 min after infusion stop, washout",,plasma concentration,1000 nM
COc1cccc(-c2n[nH]c(SCc3ccccn3)n2)c1OC,,,"Sprague-Dawley rats, both sexes","oral dietary, 30 mg/kg/day, day 90, 3 h",,plasma concentration,2220 ng/mL

# Excerpt of the above:
SMILES,tested on,test,system,conditions,scale,endpoint,value
CCOCc1nc(O)c(-c2nnc(Cc3ccc(Cl)cn3)o2)c(O)c1-c1c(OC)cccc1OC,,,"rat, anaesthetised, cannulated, plasma","intravenous infusion, 10 µg/kg/min, 20 min after infusion stop, washout",,plasma concentration,1000 nM
COc1cccc(-c2n[nH]c(SCc3ccccn3)n2)c1OC,,,"Sprague-Dawley rats, both sexes","oral dietary, 30 mg/kg/day, day 90, 3 h",,plasma concentration,2220 ng/mL
